Assay results gathered from unrelated publications.
A part holds a random share of what one study measured. Values joined by “and” are separate records of one study, mostly repeats; a detail may differ.
Chain of UniProt Q9BXA5 (whole entry, looked up): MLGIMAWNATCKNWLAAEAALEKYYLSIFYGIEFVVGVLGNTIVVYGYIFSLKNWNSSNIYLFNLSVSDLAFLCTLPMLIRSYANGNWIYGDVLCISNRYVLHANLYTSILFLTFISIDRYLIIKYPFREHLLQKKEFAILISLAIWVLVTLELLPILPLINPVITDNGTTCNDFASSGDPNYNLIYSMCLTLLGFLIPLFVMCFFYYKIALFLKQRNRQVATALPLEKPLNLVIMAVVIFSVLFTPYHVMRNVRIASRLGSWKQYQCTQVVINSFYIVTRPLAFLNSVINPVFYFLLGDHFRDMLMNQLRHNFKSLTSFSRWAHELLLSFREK
Chain of UniProt P49760 (whole entry, looked up): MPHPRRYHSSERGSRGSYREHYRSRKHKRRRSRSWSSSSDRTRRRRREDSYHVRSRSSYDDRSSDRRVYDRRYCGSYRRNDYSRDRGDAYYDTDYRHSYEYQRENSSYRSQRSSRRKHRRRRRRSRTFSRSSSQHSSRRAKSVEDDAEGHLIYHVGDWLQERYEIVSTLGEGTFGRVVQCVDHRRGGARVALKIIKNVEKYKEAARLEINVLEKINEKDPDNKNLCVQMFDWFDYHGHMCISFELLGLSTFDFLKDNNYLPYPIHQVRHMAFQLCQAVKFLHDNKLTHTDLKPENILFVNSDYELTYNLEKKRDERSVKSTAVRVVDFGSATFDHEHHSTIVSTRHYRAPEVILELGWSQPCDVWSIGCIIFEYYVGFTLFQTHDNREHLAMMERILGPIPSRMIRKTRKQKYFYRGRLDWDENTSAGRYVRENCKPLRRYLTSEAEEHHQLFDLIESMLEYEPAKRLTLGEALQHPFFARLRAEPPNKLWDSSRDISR
Chain of UniProt Q00535 (whole entry, looked up): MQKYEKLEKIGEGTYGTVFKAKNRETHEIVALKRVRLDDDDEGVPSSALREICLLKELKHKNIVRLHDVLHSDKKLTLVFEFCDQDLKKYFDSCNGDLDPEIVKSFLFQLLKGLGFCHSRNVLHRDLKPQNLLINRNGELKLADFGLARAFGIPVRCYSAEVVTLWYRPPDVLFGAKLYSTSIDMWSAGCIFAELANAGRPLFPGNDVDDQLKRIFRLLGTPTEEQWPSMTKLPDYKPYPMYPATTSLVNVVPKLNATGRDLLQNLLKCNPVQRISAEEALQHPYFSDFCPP
Chain of UniProt P49674 (whole entry, looked up): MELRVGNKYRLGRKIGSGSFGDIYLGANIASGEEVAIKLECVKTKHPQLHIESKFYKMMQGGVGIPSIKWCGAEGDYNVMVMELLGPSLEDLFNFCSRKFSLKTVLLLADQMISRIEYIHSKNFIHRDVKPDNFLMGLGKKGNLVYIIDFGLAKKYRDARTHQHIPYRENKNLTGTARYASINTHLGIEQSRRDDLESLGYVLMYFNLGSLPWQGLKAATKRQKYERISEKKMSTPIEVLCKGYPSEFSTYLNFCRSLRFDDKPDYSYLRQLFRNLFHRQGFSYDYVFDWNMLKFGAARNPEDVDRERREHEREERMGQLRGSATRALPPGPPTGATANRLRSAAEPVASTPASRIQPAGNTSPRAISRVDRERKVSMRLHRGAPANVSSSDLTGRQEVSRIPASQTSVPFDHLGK
Chain of UniProt Q06418 (whole entry, looked up): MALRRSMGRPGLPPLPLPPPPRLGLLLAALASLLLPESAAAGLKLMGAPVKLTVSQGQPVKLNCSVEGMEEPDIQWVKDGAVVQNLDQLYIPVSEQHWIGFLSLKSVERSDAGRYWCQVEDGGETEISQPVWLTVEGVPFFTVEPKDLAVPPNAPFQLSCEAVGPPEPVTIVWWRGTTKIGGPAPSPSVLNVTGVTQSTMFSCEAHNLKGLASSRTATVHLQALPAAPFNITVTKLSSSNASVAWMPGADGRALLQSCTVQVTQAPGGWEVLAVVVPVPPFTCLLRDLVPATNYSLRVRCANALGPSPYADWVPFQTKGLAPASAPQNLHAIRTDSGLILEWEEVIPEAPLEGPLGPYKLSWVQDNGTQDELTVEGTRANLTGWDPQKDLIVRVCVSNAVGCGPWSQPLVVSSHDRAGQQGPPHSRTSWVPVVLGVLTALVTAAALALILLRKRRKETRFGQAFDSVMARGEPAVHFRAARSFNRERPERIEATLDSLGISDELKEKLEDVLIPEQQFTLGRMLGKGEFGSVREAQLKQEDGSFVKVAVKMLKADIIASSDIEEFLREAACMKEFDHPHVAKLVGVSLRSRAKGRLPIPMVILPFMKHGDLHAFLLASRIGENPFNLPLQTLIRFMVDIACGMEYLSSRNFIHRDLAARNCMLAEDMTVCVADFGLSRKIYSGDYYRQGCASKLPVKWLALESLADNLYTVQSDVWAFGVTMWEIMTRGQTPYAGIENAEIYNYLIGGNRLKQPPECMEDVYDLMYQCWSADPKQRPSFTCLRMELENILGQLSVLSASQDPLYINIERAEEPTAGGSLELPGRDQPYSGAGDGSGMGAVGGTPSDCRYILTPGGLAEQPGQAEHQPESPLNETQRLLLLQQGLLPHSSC
Chain of UniProt Q96SB4 (whole entry, looked up): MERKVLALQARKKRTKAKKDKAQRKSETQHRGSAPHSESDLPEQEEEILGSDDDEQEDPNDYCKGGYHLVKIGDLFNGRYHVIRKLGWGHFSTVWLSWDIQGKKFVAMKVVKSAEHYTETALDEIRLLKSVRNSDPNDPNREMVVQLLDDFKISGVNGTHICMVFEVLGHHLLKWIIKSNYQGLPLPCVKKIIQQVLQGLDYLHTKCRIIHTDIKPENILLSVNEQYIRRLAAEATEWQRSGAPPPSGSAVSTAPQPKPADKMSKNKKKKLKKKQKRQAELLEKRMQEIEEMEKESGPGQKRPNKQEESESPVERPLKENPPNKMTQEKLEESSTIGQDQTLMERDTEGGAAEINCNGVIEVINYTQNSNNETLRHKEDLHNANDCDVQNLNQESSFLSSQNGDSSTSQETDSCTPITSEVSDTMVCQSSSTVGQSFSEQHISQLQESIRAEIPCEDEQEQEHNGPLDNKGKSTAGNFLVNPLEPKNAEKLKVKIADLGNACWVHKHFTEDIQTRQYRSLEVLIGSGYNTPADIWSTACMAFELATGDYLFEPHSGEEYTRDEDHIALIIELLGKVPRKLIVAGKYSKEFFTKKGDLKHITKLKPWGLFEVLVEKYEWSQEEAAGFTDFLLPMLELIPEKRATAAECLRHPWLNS
Chain of UniProt Q86SM8 (whole entry, looked up): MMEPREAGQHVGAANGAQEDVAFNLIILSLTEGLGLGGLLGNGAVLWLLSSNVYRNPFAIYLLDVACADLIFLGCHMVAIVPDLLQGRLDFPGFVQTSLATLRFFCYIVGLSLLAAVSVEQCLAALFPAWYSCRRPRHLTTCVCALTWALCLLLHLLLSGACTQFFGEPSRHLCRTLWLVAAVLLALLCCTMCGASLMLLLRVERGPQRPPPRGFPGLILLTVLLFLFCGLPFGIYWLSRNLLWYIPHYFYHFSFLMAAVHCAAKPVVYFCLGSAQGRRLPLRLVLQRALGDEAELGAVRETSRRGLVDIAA
Chain of UniProt Q9HBY8 (whole entry, looked up): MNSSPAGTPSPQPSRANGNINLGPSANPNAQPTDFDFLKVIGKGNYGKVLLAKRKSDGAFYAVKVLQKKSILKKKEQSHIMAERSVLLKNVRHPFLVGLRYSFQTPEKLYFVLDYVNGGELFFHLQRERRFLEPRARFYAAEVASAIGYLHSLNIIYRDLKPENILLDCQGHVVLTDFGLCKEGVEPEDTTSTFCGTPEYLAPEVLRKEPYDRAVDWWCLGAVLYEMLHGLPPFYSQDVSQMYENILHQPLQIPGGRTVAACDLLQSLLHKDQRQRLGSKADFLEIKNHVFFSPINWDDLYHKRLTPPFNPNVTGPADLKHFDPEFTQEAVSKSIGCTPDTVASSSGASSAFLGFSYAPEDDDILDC

Set 1
SMILES: CCN(c1nc(N)c(C(=O)N=C(N)N)nc1Cl)C(C)C
Effect on: β-arrestin recruitment
Mode: agonist
Method: PRESTO-Tango
Concentration: 10 µM
Reference: untreated
| target | fold over basal |
| --- | --- |
| P2Y purinoceptor 1 (P2RY1, Homo sapiens, UniProt P47900) | 0.94 |
| Mas-related G-protein coupled receptor member E (MRGPRE, Homo sapiens, UniProt Q86SM8) | 1.05 |
| G protein-coupled receptor 88 (Homo sapiens, UniProt Q9GZN0) | 1.07 |
| SUCNR1 (Homo sapiens, UniProt Q9BXA5) | 1.11 fold |
| G-protein coupled receptor 182 (GPR182, Homo sapiens, UniProt O15218) | 0.92 |

Set 2
SMILES: O=C1NC(=O)/C(=C/c2ccc3nccnc3c2)S1
Effect on: enzyme activity
Mode: inhibitor
Concentration: 0.5 µM
Reference: control
| target | remaining activity |
| --- | --- |
| BRSK2 (Homo sapiens, UniProt Q8IWQ3) | 90.9% |
| PAK1 (Homo sapiens, UniProt Q13153) | 96% |
| DYRK1A (Homo sapiens, UniProt Q13627) | 21.8% |
| Cyclin-dependent kinase 2, with cyclin E (CDK2, Homo sapiens, UniProt P24941) | 91.8% |
| CAMK1 (Homo sapiens, UniProt Q14012) | 95.7% |
| CSNK1E (Homo sapiens, UniProt P49674) | 92.3% |
| PIM1 (Homo sapiens, UniProt P11309) | 61.7% |
| MARK1 (Homo sapiens, UniProt Q9P0L2) | 96.2% |
| YES1 (Homo sapiens, UniProt P07947) | 89.3% |
| IGF1R (Homo sapiens, UniProt P08069) | 92% |
| TEC (Homo sapiens, UniProt P42680) | 117% |
| Cyclin-dependent kinase 5, with p35 (CDK5, Homo sapiens, UniProt Q00535) | 97.9% |
| SRPK1 (Homo sapiens, UniProt Q96SB4) | 110% |
| EPHB3 (Homo sapiens, UniProt P54753) | 94.5% |
| CLK2 (Homo sapiens, UniProt P49760) | 74% |
| RPS6KB2 (Homo sapiens, UniProt Q9UBS0) | 94.7% |
| CSNK1D (Homo sapiens, UniProt P48730) | 96.3% |
| CAMKK1 (Homo sapiens, UniProt Q8N5S9) | 81.8% |
| SGK2 (Homo sapiens, UniProt Q9HBY8) | 99.3% |
| TYRO3 (Homo sapiens, UniProt Q06418) | 99.1% |
| CLK1 (Homo sapiens, UniProt P49759) | 80.1% |
| EPHA6 (Homo sapiens, UniProt Q9UF33) | 82.4% |
| ERBB2 (Homo sapiens, UniProt P04626) | 107% |
| RPS6KA3 (Homo sapiens, UniProt P51812) | 101% |
| SIK2 (Homo sapiens, UniProt Q9H0K1) | 102% |

Set 3
SMILES: CC(C)(C(=O)O)[C@H](NC(=O)Cc1cccc(I)c1)c1ccc2oc(=O)[nH]c2c1
Method: Incucyte 3D growth
Concentration: 30 µM
Direction: higher = more growth
| cell line | setting | spheroid area |
| --- | --- | --- |
| NCI-H358 | 36 h | 4.41e+06 a.u. and 3.41e+06 a.u. and 4.18e+06 a.u. and 3.63e+06 a.u. and 4.03e+06 a.u. and 3.88e+06 a.u. |
| KP-4 | 156 h | 2.47e+07 a.u. and 2.53e+07 a.u. and 1.71e+07 a.u. and 2.43e+07 a.u. and 2.15e+07 a.u. and 2.24e+07 a.u. |
| A375 | 486.52 h | 1.79e+08 a.u. and 1.49e+08 a.u. and 1.47e+08 a.u. and 1.4e+08 a.u. and 1.62e+08 a.u. and 1.55e+08 a.u. |
| MEL-JUSO | 276.52 h | 2.07e+07 a.u. and 1.78e+07 a.u. and 2.52e+07 a.u. and 2.29e+07 a.u. and 2.27e+07 a.u. and 3.77e+07 a.u. |
| PC-9 | 228 h | 1.77e+09 a.u. and 1.88e+09 a.u. and 1.81e+09 a.u. and 1.82e+09 a.u. and 1.83e+09 a.u. and 1.85e+09 a.u. |
| KP-4 | 78 h | 1.55e+07 a.u. and 1.34e+07 a.u. and 1.75e+07 a.u. and 1.58e+07 a.u. and 1.65e+07 a.u. and 1.39e+07 a.u. |

Set 4
Target: Diamine acetyltransferase 1 (Homo sapiens, UniProt P21673)
Mode: inhibitor
Concentration: 10 µM
Reference: control
Target sequence (P21673 1-171): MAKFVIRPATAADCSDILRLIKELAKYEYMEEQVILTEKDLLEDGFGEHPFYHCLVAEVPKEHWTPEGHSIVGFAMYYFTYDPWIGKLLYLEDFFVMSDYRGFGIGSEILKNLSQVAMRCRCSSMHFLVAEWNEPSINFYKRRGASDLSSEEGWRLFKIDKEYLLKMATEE
| Compound | remaining activity [%] |
| --- | --- |
| CC1=C(C=O)C(C)(C)C[C@H](O[C@@H]2O[C@H](CO)[C@@H](O)[C@H](O)[C@H]2O)C1 | 91.4 |
| COc1c(O)cc2occ(-c3ccc(O)cc3)c(=O)c2c1O | 116 |
| C[C@@H]1O[C@@H](O[C@H]2[C@H](Oc3cc(O)c4c(=O)cc(-c5ccc(O)c(O)c5)oc4c3)O[C@H](CO)[C@@H](O)[C@@H]2O)[C@H](O)[C@H](O)[C@H]1O | 99.5 |
| OC[C@H]1O[C@H](OC[C@H]2O[C@H](O[C@]3(CO)O[C@H](CO)[C@@H](O)[C@@H]3O)[C@H](O)[C@@H](O)[C@@H]2O)[C@H](O)[C@@H](O)[C@H]1O | 103 |
| C=C(CC[C@@H](C(=O)O)[C@H]1CC[C@@]2(C)C3=CC[C@H]4C(C)(C)[C@@H](OC(C)=O)CC[C@]4(C)C3=CC[C@]12C)C(C)C | 110 |
| CSSSC | 101 |
| C/C=C/C(=O)C1=C(C)CCCC1(C)C | 82.6 |
| CCCCCCCCCCCCCCCCCCCCC | 85.6 |
| O=c1c(O)c(-c2ccc(O)cc2)oc2cc(O)cc(O)c12 | 88.6 |

Set 5
Cell line: normal-adjacent organoid sample E
Method: CellTiter-Glo
Concentration: 0.1 µM
Notes: replicate mean
Reference: DMSO
| SMILES | viability |
| --- | --- |
| O=C(NCCCC1CCCCC1)c1ccc(CNC(=O)c2cnn(-c3ccccc3)c2C(F)(F)F)cc1 | 114% |
| CNCc1ccccc1-c1csc([C@H](C)Nc2nc(C)nc3cc(OC)c(OC)cc23)c1 | 111% |
| O=C(c1ccc(F)cc1)N1CC(COc2ccc(Br)cc2)(C(=O)O)C1 | 96.8% |
| COc1cccc(CNC(=O)c2nc3scc(COCc4ccc(C(=O)O)cc4)c3c(=O)[nH]2)c1 | 118% |
| CNC(=O)c1ccc(Nc2ncc(C(F)(F)F)c(NCc3nccnc3N(C)S(C)(=O)=O)n2)cc1 | 80.8% |
| CCOC(=O)c1cc2cc(-c3cc(C(=O)NCc4ccc(C(=O)O)cc4)nn3C)ccc2[nH]1 | 104% |

Excerpt of the above (set 4):
| Compound | remaining activity [%] |
| --- | --- |
| CCCCCCCCCCCCCCCCCCCCC | 85.6 |
| CSSSC | 101 |
| C=C(CC[C@@H](C(=O)O)[C@H]1CC[C@@]2(C)C3=CC[C@H]4C(C)(C)[C@@H](OC(C)=O)CC[C@]4(C)C3=CC[C@]12C)C(C)C | 110 |
| C/C=C/C(=O)C1=C(C)CCCC1(C)C | 82.6 |
| OC[C@H]1O[C@H](OC[C@H]2O[C@H](O[C@]3(CO)O[C@H](CO)[C@@H](O)[C@@H]3O)[C@H](O)[C@@H](O)[C@@H]2O)[C@H](O)[C@@H](O)[C@H]1O | 103 |
| O=c1c(O)c(-c2ccc(O)cc2)oc2cc(O)cc(O)c12 | 88.6 |
| C[C@@H]1O[C@@H](O[C@H]2[C@H](Oc3cc(O)c4c(=O)cc(-c5ccc(O)c(O)c5)oc4c3)O[C@H](CO)[C@@H](O)[C@@H]2O)[C@H](O)[C@H](O)[C@H]1O | 99.5 |
| CC1=C(C=O)C(C)(C)C[C@H](O[C@@H]2O[C@H](CO)[C@@H](O)[C@H](O)[C@H]2O)C1 | 91.4 |
| COc1c(O)cc2occ(-c3ccc(O)cc3)c(=O)c2c1O | 116 |
